Experimental data of several laboratories.
Each numbered part is a random draw from the data of one study; scales do not carry over between parts. Changes are numbered by the printed parent chain.

Block 1 — target: ATF5, bZIP domain (human); method: DHFR protein complementation; matrix: yeast; relative to: wild-type JUN-FOS pair; direction: higher = stronger binding
Notes: single substitutions, most at no-binding floor
Parent: JUN, bZIP domain (human); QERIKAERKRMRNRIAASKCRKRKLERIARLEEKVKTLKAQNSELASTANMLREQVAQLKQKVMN; partner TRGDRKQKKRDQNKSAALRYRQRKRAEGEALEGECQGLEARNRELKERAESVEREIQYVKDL
| Substitution | binding fitness [natural log] |
| --- | --- |
| T37V | -1.41 |
| N42S | -1.53 |
| M51P | -1.55 |
| E32R | -1.28 |
| L45D | -1.44 |
| A40R | -1.45 |
| Q41H | -1.48 |
| E32N | -1.5 |
| A46R | -1.37 |
| R53G | -1.54 |
| L45S | -1.44 |
| A29Q | -1.41 |
| R30L | -1.45 |
| A40T | -1.45 |
| K39D | -1.52 |
| V35Q | -1.4 |
| Q41M | -1.5 |
| S43M | -1.28 |
| L52A | -1.47 |
| A29N | -1.17 |
| E32C | -1.52 |

Block 2 — method: protein binding microarray; form: double-stranded DNA, one strand shown; matrix: in vitro; concentration: not given; relative to: not given; direction: higher = stronger binding
Target: Histone acetyltransferase KAT6A, winged helix 2, GST fusion (KAT6A, Homo sapiens, UniProt Q92794, residues 85-181)
Notes: 8-mer, flanks averaged, mean of 2 arrays, mostly near background
Residues (chain): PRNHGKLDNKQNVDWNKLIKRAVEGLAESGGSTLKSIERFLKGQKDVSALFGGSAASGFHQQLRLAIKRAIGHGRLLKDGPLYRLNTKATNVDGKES
| Sequence | E-score |
| --- | --- |
| ACATCCCC | -0.0565 |
| AACACCAT | -0.0323 |
| CTAGCAGC | -0.017 |
| AGTTTCGC | -0.0254 |
| ATACGGTA | -0.0899 |
| AGCTTATA | -0.158 |
| GAGGTCAC | 0.0554 |
| AACGTGGC | -0.0582 |
| CCGCGTCA | -0.0598 |
| AAGGGACA | -0.0112 |
| CCGGGCCC | 0.22 |
| CATAGGTA | -0.0904 |
| ATGGCTCA | -0.171 |
| ACTAGACG | 0.0112 |
| ATTAAATG | -0.0177 |
| TACAAGCA | -0.046 |
| AGAAAACT | 0.0777 |
| CTCGGCTA | 0.136 |
| CCTCAACA | 0.246 |
| AGCAAGGG | 0.0682 |
| ATTCGGAC | 0.133 |
| CCTCCTAC | -0.111 |
| ATTTCCCG | 0.139 |
| CACCATTC | -0.0432 |
| GAGTTATC | 0.0454 |

Block 3 — method: aptamer microarray, sandwich; form: DNA with 2'F-ANA; matrix: in vitro; concentration: 200 nM; together with: Cy3 exosite-II aptamer, 400 nM; direction: higher = stronger binding; sequence: GGTTGGTGTGGTTGG
Target: Prothrombin, mature alpha-thrombin (F2, Homo sapiens, UniProt P00734)
Notes: whole 15-mer aptamer, many near background
| Modification | mean fluorescence intensity [a.u.] |
| --- | --- |
| 2'F-ANA at 4 5 6 10 12 | 51.3 |
| 2'F-ANA at 1 3 5 7 9 13 15 | 53.4 |
| 2'F-ANA at 2 3 5 12 15 | 220 |
| 2'F-ANA at 1 3 6 7 8 13 14 | 124 |
| 2'F-ANA at 1 3 4 5 7 8 11 14 15 | 49.6 |
| 2'F-ANA at 1 2 3 4 9 11 12 13 14 15 | 70.4 |
| 2'F-ANA at 1 2 5 8 11 12 13 14 | 46.5 |
| 2'F-ANA at 2 4 8 12 13 14 15 | 124 |
| 2'F-ANA at 3 4 5 6 8 9 10 13 14 15 | 45.5 |
| 2'F-ANA at 5 14 | 43.5 |
| 2'F-ANA at 2 3 4 5 7 8 13 15 | 95.1 |
| 2'F-ANA at 1 3 6 9 12 15 | 531 |
| 2'F-ANA at 1 3 4 8 9 10 | 74.1 |
| 2'F-ANA at 1 2 3 5 12 14 | 46.3 |
| 2'F-ANA at 2 3 7 8 9 10 11 12 13 | 389 |
| 2'F-ANA at 2 3 4 5 7 8 10 14 | 52.8 |
| 2'F-ANA at 4 6 10 11 12 13 14 15 | 58.7 |
| 2'F-ANA at 2 3 5 6 11 12 15 | 182 |
| 2'F-ANA at 1 2 4 6 7 8 11 12 13 14 15 | 59.9 |
| 2'F-ANA at 1 3 5 6 11 12 14 | 43.3 |
| 2'F-ANA at 1 2 5 6 8 9 11 13 14 | 46.3 |
| 2'F-ANA at 1 2 7 10 13 | 51.4 |

Block 4 — target: CCND1, cyclin fold, Cln2 fusion (human); method: yeast growth competition, sequencing; matrix: yeast; notes: strong parent motif; relative to: not given; direction: higher = stronger binding
Parent: PKN2 docking peptide (human); VSAVRKLDFSDTM; partner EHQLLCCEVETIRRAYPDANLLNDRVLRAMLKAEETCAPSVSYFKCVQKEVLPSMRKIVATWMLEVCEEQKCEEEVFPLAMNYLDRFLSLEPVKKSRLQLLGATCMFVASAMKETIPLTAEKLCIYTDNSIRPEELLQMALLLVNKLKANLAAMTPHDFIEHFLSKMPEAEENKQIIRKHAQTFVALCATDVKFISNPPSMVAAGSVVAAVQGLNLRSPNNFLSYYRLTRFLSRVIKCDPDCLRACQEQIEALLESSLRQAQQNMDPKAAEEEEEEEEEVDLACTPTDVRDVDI
| Substitution | normalised enrichment score |
| --- | --- |
| F9P | 0.0213 |
| K6V | 4.3 |
| F9W | 2.04 |
| T12M | 5.23 |
| K6Y | 3.56 |
| L7M | 0.78 |
| F9Y | 0.944 |
| F9D | -0.131 |
| V4H | 1.7 |
| T12A | 5.82 |
| S2A | 3.51 |
| T12W | 5.77 |
| D11C | 5.05 |
| K6S | 2.16 |
| L7F | 0.26 |
| T12R | 4.92 |
| S10V | 3.57 |
| T12Q | 5.11 |
| D11A | 4.95 |
| S10Q | 4.33 |
| D11Q | 4.71 |
| A3R | 0.528 |
| S10M | 4.11 |
| T12L | 5.16 |
| V4E | 0.943 |
